Results from different studies.
Each line is one published result; not all experiments were run side by side. ± marks the error that the study gave.
HDAC11: Histone deacetylase 11 (HDAC11, Homo sapiens, UniProt Q96DB2)
Chain of UniProt Q96DB2 (whole entry, looked up): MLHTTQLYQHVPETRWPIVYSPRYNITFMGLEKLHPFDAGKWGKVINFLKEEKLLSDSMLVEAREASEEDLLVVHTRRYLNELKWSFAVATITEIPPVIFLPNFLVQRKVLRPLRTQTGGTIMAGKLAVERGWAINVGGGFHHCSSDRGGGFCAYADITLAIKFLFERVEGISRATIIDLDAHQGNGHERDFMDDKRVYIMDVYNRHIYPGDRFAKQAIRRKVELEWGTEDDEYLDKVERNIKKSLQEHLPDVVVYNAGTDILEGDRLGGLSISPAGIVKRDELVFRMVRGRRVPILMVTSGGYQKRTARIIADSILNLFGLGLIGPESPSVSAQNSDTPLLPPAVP
Chain of UniProt P30550 (whole entry, looked up): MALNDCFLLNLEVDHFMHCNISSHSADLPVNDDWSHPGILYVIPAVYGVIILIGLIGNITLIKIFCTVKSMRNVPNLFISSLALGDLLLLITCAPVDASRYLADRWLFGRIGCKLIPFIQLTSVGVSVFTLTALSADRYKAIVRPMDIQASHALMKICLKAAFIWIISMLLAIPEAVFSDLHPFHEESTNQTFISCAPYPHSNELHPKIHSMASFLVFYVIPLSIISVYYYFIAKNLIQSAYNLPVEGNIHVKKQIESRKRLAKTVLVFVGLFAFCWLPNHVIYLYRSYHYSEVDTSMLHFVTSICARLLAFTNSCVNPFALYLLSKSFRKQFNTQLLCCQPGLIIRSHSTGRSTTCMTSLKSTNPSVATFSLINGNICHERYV
Chain of UniProt P28074 (whole entry, looked up): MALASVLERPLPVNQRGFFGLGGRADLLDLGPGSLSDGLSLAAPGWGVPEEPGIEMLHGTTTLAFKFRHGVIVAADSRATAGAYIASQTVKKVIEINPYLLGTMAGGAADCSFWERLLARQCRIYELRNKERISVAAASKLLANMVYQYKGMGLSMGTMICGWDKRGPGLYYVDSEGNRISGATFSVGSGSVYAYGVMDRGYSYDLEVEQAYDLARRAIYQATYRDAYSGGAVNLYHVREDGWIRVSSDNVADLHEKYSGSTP
Chain of UniProt P45983 (whole entry, looked up): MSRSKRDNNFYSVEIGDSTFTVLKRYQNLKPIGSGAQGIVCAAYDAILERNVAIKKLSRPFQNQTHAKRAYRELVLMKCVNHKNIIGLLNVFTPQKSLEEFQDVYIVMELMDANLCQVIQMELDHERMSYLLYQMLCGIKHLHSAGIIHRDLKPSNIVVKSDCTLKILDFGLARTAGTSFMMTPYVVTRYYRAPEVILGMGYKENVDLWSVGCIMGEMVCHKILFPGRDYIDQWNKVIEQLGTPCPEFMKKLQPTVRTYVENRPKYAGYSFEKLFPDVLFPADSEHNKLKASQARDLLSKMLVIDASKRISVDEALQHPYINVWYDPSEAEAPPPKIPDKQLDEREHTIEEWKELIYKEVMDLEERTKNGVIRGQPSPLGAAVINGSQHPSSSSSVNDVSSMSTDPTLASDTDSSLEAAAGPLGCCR
Chain of UniProt P54756 (whole entry, looked up): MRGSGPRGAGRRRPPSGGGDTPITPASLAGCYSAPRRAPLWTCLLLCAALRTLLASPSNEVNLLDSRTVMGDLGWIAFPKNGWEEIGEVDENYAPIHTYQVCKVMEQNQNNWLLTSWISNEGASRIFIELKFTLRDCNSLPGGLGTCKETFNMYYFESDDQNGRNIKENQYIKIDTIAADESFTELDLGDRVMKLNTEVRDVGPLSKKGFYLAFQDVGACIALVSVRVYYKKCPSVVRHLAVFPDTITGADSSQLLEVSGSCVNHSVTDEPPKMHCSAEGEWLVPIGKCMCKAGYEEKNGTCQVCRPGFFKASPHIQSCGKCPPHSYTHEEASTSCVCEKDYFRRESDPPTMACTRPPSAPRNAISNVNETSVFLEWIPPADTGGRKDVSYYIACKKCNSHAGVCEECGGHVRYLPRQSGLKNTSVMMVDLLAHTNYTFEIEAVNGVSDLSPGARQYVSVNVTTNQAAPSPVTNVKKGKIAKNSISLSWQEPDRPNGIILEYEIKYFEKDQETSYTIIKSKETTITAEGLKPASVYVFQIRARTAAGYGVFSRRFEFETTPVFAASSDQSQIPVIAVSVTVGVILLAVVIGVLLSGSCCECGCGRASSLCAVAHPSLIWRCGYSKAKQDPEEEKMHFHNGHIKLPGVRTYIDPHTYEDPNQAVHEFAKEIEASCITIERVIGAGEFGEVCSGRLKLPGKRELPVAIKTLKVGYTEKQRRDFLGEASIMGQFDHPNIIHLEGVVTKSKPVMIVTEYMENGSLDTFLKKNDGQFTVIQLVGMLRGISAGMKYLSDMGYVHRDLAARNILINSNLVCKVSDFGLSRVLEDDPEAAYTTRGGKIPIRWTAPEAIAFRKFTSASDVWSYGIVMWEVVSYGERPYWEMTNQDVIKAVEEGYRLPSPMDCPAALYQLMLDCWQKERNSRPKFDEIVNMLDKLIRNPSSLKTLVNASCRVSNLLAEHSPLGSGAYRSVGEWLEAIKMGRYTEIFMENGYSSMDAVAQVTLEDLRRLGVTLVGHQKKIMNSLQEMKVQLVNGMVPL
Chain of UniProt P97612 (whole entry, looked up): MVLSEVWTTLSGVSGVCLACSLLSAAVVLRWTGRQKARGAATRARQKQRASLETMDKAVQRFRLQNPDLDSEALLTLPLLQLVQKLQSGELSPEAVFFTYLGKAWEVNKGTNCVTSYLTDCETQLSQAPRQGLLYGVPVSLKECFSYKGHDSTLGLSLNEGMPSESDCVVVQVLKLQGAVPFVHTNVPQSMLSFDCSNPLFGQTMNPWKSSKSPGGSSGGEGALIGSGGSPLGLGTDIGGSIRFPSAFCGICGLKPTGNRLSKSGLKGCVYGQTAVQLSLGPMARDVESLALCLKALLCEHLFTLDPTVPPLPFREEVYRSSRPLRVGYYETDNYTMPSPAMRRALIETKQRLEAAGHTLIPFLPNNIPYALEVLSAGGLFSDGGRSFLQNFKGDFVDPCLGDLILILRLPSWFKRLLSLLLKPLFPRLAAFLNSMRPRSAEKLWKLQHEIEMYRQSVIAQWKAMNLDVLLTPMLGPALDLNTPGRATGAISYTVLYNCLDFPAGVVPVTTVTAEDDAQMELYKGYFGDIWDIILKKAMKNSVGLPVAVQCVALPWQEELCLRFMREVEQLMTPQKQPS
Chain of UniProt O95838 (whole entry, looked up): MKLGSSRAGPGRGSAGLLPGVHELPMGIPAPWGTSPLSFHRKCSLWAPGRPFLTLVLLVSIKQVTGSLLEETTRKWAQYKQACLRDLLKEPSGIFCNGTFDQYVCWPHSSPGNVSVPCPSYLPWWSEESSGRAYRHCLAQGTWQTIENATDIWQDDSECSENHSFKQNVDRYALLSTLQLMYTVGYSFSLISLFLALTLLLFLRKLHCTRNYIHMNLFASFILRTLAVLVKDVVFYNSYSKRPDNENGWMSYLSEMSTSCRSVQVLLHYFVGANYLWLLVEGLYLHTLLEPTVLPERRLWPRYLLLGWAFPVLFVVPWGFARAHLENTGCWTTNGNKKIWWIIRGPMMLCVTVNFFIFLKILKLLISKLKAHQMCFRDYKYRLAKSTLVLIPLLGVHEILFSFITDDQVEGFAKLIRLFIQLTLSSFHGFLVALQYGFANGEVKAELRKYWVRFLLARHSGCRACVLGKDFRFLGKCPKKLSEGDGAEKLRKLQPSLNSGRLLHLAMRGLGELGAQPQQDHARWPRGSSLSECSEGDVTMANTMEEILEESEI
Chain of UniProt P20618 (whole entry, looked up): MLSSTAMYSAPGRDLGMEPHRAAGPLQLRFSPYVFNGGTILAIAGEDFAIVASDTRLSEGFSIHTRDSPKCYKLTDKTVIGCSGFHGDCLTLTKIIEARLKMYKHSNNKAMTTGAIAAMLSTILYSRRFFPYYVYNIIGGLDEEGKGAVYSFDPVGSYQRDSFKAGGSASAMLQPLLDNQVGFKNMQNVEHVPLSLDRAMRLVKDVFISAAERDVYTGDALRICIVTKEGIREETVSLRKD
Chain of UniProt Q14011 (whole entry, looked up): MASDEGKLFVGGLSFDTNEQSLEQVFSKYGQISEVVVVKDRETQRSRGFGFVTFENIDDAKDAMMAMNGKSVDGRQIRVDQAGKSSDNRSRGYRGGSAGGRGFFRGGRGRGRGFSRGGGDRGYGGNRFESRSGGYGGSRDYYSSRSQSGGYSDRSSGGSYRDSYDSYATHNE

SMILES	target	assay	test system	setting	IC50 [µM]
CCCC[C@H](NC(=O)[C@H](Cc1ccccc1)NC(=O)[C@H](Cc1c[nH]cn1)NC(=O)CCNC(=O)[C@@H](NC(=O)[C@H](C)NC(=O)[C@H](Cc1c[nH]c2ccccc12)NC(=O)[C@H](CC(N)=O)NC(=O)[C@H](N)Cc1ccc(O)cc1)C(C)C)C(N)=O	GRPR (Homo sapiens, UniProt P30550)	ligand displacement in cells, radioligand	–	–	0.001
Cc1ccc(CNC(=O)[C@H](CC(C)C)NC(=O)[C@H](CCc2ccccc2)NC(=O)c2cnc(C)cn2)cc1	Proteasome component C5/PSMB5 (Homo sapiens, UniProt P20618+P28074)	β5 activity, inhibitor	–	added: Suc-LLVY-AMC, PA28α-activated	6.54
COCCn1cc(COc2cccc(Cc3cnc(NC(=O)CSc4nc(C)cc(C)n4)s3)c2)nn1	SIRT1 (Homo sapiens, UniProt Q96EB6)	enzyme activity, inhibitor, fluorescence	–	–	> 100
COCc1cc2c(cn1)CN(C(=O)Nc1nc(-c3ccc(F)cc3)ccc1N)C2	HDAC11	deacetylase activity, inhibitor, recombinant enzyme	–	–	11.8
COC(=O)c1ccc(Cn2sc3ccccc3c2=O)cc1	HDAC11	enzyme activity, inhibitor	–	–	> 10
CCOc1cncc(-c2ccc(NC(=O)C(CC)c3ccnc(NS(=O)(=O)C4CC4)n3)nc2)n1 (stereo not drawn)	CTP synthase 2 (CTPS2, Homo sapiens, UniProt Q9NRF8)	enzyme activity, RapidFire mass spectrometry	human	geometric mean	1.87
O=C(NCCCN1CCC(Cc2ccccc2)CC1)c1ccc2ccccc2n1	SLC6A2 (Homo sapiens, UniProt P23975)	transporter uptake, inhibitor, radiometric	–	–	1.02 to 5.66
C=C1C[C@@]2(C(=O)OC)C=C(C(=O)Nc3cccc(C(=O)Nc4ccc(Nc5nccc(-c6cccnc6)n5)c(C)c4)c3)C(=O)[C@@H]1C2	MAPK8 (Homo sapiens, UniProt P45983)	kinase activity, inhibitor	–	added: GSH 10 mM	0.128 ± 0.003
Cc1nc(NC(=O)c2ccccc2)sc1-c1csc(Nc2ccc(O)c(C(=O)O)c2)n1	CIRBP (Homo sapiens, UniProt Q14011)	RNA binding, inhibitor, fluorescence anisotropy	–	added: fluorescein-labelled RNA motif	6.4
Cc1nc(Nc2ncc(C(=O)Nc3c(C)cccc3Cl)s2)cc(N2CCN(CCOC(=O)[C@@H](N)CCC(=O)O)CC2)n1	SRC (Homo sapiens, UniProt P12931)	enzyme activity, inhibitor	–	–	< 0.00043
CNC(=O)C1CCN(c2ccccc2NC(=O)c2ccc(-c3cc(O)ccc3C)cc2)CC1	EPHA5 (Homo sapiens, UniProt P54756)	target engagement in cells, BRET	–	–	0.0545
CC[C@H](C)[C@H](NC(=O)[C@H](Cc1ccccc1)NC(=O)[C@H](CC(=O)O)NC(=O)[C@H](CCCNC(=N)N)NC(=O)[C@H](C)NC(=O)[C@H](C)NC(=O)[C@H](CC(C)C)NC(=O)[C@H](CC(N)=O)NC(=O)[C@H](CC(=O)O)NC(=O)[C@H](CC(C)C)NC(=O)[C@@H](NC(=O)[C@@H](NC(=O)[C@H](CC(N)=O)NC(=O)[C@H](CCSC)NC(=O)[C@H](CCC(=O)O)NC(=O)[C@H](CC(=O)O)NC(=O)[C@H](CO)NC(=O)[C@H](Cc1ccccc1)NC(=O)[C@H](CO)NC(=O)[C@H](C)NC(=O)[C@H](CC(=O)O)NC(=O)[C@H](C)NC(=O)[C@@H](N)Cc1c[nH]cn1)[C@@H](C)O)[C@@H](C)CC)C(=O)N[C@@H](CC(N)=O)C(=O)N[C@@H](Cc1c[nH]c2ccccc12)C(=O)N[C@@H](CC(C)C)C(=O)N[C@H](C(=O)N[C@@H](CCC(N)=O)C(=O)N[C@H](C(=O)N[C@@H](CCCCN)C(=O)N[C@H](C(=O)N[C@H](C(=O)N[C@@H](CC(=O)O)C(N)=O)[C@@H](C)O)[C@@H](C)CC)[C@@H](C)O)[C@@H](C)CC	GLP2R (Homo sapiens, UniProt O95838)	–	–	–	0.028
CC[C@H](C)[C@H](NC(=O)CNC(=O)[C@H](CC(=O)O)NC(=O)[C@H](CO)NC(=O)C=Cc1c[nH]cn1)C(=O)N[C@@H](Cc1ccccc1)C(=O)N[C@H](C(=O)N[C@@H](CC(=O)O)C(=O)N[C@@H](CO)C(=O)N[C@@H](Cc1ccc(O)cc1)C(=O)N[C@@H](CO)C(=O)N[C@@H](CCCNC(=N)N)C(=O)N[C@@H](Cc1ccc(O)cc1)C(=O)N[C@@H](CCCNC(=N)N)C(=O)N[C@@H](CCCCN)C(=O)N[C@@H](CCC(N)=O)C(=O)N[C@@H](CCSC)C(=O)N[C@@H](C)C(=O)N[C@H](C(=O)N[C@@H](CCCCN)C(=O)N[C@@H](CCCCN)C(=O)N[C@@H](C)C(=O)N[C@@H](CC(C)C)C(=O)N[C@@H](C)C(=O)N[C@@H](C)C(=O)N[C@H](C(=O)N[C@@H](CC(C)C)C(=O)NCC(=O)N[C@@H](CCCCN)C(=O)N[C@@H](CCCNC(=N)N)C(=O)N[C@@H](Cc1ccc(O)cc1)C(=O)N[C@@H](CCCCN)C(=O)N[C@@H](CCC(N)=O)C(=O)N[C@@H](CCCNC(=N)N)C(=O)N[C@H](C(=O)N[C@@H](CCCCN)C(=O)N[C@@H](CC(N)=O)C(=O)N[C@@H](CCCCN)C(N)=O)C(C)C)C(C)C)C(C)C)[C@@H](C)O	VIPR1 (Homo sapiens, UniProt P32241)	ligand displacement, radioligand	–	–	0.0372
Cn1cc(-c2cc(N3CCCCS3(=O)=O)ccc2N[C@H]2CC[C@H](C)CC2)c2cc[nH]c2c1=O (stereo in doubt)	Bromodomain-containing protein 4, BD1 (BRD4, Homo sapiens, UniProt O60885)	cell-free assay, TR-FRET	–	–	0.00099
O=C(OC(C(F)(F)F)C(F)(F)F)N1CCC(CCn2ccc3cccnc32)CC1	Faah (Rattus norvegicus, UniProt P97612)	enzyme activity, inhibitor	–	–	3.9

A few entries again:
SMILES	target	assay	test system	setting	IC50 [µM]
COC(=O)c1ccc(Cn2sc3ccccc3c2=O)cc1	HDAC11	enzyme activity, inhibitor	–	–	> 10
